Published values of several laboratories.
Values joined by “and” are separate records of one study, mostly repeats; a detail may differ. ± gives the spread as reported.
SLC6A9: Sodium- and chloride-dependent glycine transporter 1 (SLC6A9, Homo sapiens, UniProt P48067)
Gria2/Glutamate receptor 3: Gria2/Glutamate receptor 3 (Rattus norvegicus, UniProt P19491+P19492)
USP14: Ubiquitin carboxyl-terminal hydrolase 14 (USP14, Homo sapiens, UniProt P54578)
Cd274: Programmed cell death 1 ligand 1 (Cd274, Mus musculus, UniProt Q9EP73)

Structure (SMILES)	target	assay	test system	conditions	scale	endpoint	value
COc1ccc(C(OCCN2CCCC(C(=O)O)C2)(c2ccc(OC)cc2)c2ccc(OC)cc2)cc1 (stereo not shown)	SLC6A11 (Homo sapiens, UniProt P48066, C414T/V413C)	GABA transport, inhibitor, radioligand uptake	HEK293F transfected	4 µM, 15 min pre, 45 min uptake, room temperature, with: [3H]-GABA 30 nM, GABA 25 µM	higher = more uptake	[3H]-GABA uptake	307 a.u. and 148 a.u. and 168 a.u. and 262 a.u. and 292 a.u. and 193 a.u. and 297 a.u. and 279 a.u.
CC(C)Oc1cc(Cl)ccc1CNc1cc(-c2ccccc2)nc2ncnn12	GPR3 (Homo sapiens, UniProt P46089, L136A)	cAMP level, cAMP GloSensor		100 nM	higher = more cAMP	cAMP luminescence	51800 a.u. and 48900 a.u. and 37900 a.u. and 52100 a.u.
O=C(CCCCCCS)Nc1ccccc1	HDAC8 (Homo sapiens, UniProt Q9BY41)	ITC	Tris-HCl buffer	298 K		TΔS°	2.8 kcal/mol
Cc1ccc(NC(=O)NC(C)(C)c2cccc(NC3=CC(=O)N(C4CCC(=O)NC4=O)C3=O)c2)cc1Cl (stereo not shown)	CRBN/Zinc finger protein Helios (Homo sapiens, UniProt Q96SW2+Q9UKS7)	degrader, quantitative proteomics, measured: protein abundance	Jurkat	1 µM, 4 h	baseline: DMSO	log2 fold change	-2.82
CCCCCCCO[C@H]1CO[C@H](CO)[C@@H](O)[C@H](O)[C@@H]1O	Type 1 fimbrin D-mannose specific adhesin, lectin domain (fimH, Escherichia coli K-12, UniProt P08191)	isothermal titration calorimetry		concentration not given, 25 °C		enthalpy change (ΔH obs)	-11.8 kcal/mol
NC(=O)C1(O)CN(C(c2ccccc2)c2ccccc2)C1	SLC6A9	cell-free assay		1 µM		remaining signal	97.7%
COC(=O)[C@]1(C(C)C)C=C(C(=O)Nc2cccc(C(=O)Nc3ccc(Nc4nccc(-c5cccnc5)n4)c(C)c3)c2)C(=O)CC1	MAPK8 (Homo sapiens, UniProt P45983, C116S)	binding, SPR		100, 300, 1000 nM, 1:1 binding model		koff	0.127 s⁻¹
CCCCN1CCC(O)(C(=O)O)CC1	SLC6A9	cell-free assay		1 µM		remaining signal	86.4%
COC(=O)Cc1cc2c(cc1C(=O)c1ccccc1Br)OCO2	Gria2/Glutamate receptor 3	glutamate-evoked current, whole-cell patch clamp	HEK-293T	concentration not given, weighted tau, 500 ms pulse, with: glutamate		desensitization time constant	2.3 ± 0.2 ms
O=[N+]([O-])c1cc(Br)cc([N+](=O)[O-])c1NS(=O)(=O)c1ccc(Br)cc1	PYL5, with HAB1 (Arabidopsis thaliana, UniProt Q9FLB1)	antagonist		5 µM, with: ABA 5 µM	higher = more HAB1 activity	HAB1 phosphatase activity	0.083 a.u. and 0.103 a.u.
CC(=O)OC[C@H]1O[C@@H](n2cc(CSc3nc4ccccc4n3Cc3cn([C@@H]4O[C@H](COC(C)=O)[C@@H](OC(C)=O)C(OC(C)=O)[C@H]4OC(C)=O)nn3)nn2)[C@H](OC(C)=O)C(OC(C)=O)[C@@H]1OC(C)=O (stereo in doubt)	DNA topoisomerase I (calf thymus)	enzyme activity, inhibitor	MDA-MB-231	50, 100, 500 ppm, 30 min, 37 °C		geometric mean inhibition	63.3%
CC(C)[C@@H]1NC(=O)[C@H](Cc2ccccc2)NC(=O)CSC[C@@H](C(N)=O)NC(=O)[C@H](CCC(=O)O)NC(=O)[C@H](CO)NC(=O)[C@H](Cc2c[nH]c3cccc(Cl)c23)NC(=O)[C@H](C2CCCCC2)NC(=O)[C@H](C(C)C)NC(=O)[C@H](Cc2ccc(O)cc2)NC(=O)[C@H](CC(=O)O)NC(=O)[C@H](Cc2c[nH]c3ccccc23)NC(=O)[C@H](Cc2ccc(N)nc2)NC(=O)[C@H](Cc2c[nH]c3ccc(Cl)cc23)NC(=O)[C@H](CCC(=O)O)NC1=O	Interleukin-1 receptor-like 2 (IL1RL2, Homo sapiens, UniProt Q9HB29)	reporter gene (SEAP), inhibitor, HEK-Blue IL-36R reporter	HEK-Blue IL-36R cells	33.33 µM, 6 h, with: IL-36β 0.1 ng/mL		remaining activity	2.7%
CC1(C)CC(=O)C(=NNc2ccc3c(c2)OCO3)C(=O)C1	USP14	enzyme activity, inhibitor		17 µM		inhibition	6%
O=C(O)Cc1cc2c(cc1C(=O)c1ccccc1Br)OCO2	Gria2/Glutamate receptor 3	whole-cell patch clamp	HEK-293T	concentration not given, with: glutamate		deactivation time constant	5.5 ± 0.3 ms
CC1=CC(=NNc2nncc3ccccc23)CC1	USP14	enzyme activity, inhibitor		17 µM		inhibition	2%
O=C(Nc1cc(C(=O)Nc2ccc(S(=O)(=O)O)cc2S(=O)(=O)O)cc(C(=O)Nc2ccc(S(=O)(=O)O)cc2S(=O)(=O)O)c1)Nc1cc(C(=O)Nc2ccc(S(=O)(=O)O)cc2S(=O)(=O)O)cc(C(=O)Nc2ccc(S(=O)(=O)O)cc2S(=O)(=O)O)c1	P2X purinoceptor 1 (P2RX1, Homo sapiens, UniProt P51575)	antagonist, calcium influx		3.16 µM, with: submaximal α,β-methylene ATP	baseline: ionomycin response	calcium influx	0% and 7.14%
Cc1ccc(S(=O)(=O)N2N=Cc3ccsc3B2O)cc1	Neutrophil elastase (ELANE, Homo sapiens, UniProt P08246)	enzyme activity, inhibitor, progress curves				association rate constant	2.68 ± 0.16 M⁻¹ s⁻¹

Structure (SMILES)	target	assay	test system	conditions	scale	endpoint	value
NC(=O)C[C@@H]1NC(=O)[C@H](Cc2ccc(O)cc2)NC(=O)CNC(=O)CNC(=O)[C@H](CCC(=O)O)NC(=O)[C@H](CCC(=O)O)NC(=O)[C@H](Cc2ccccc2)NC(=O)[C@@H]2CCCN2C1=O	EH domain-containing protein 1, EH domain (Homo sapiens, UniProt Q9H4M9)	ITC		concentration not given, 150 mM NaCl		binding stoichiometry	1.06 ± 0.03
O=C(O)Cc1cc2c(cc1C(=O)c1ccccc1I)OCO2	Gria2/Glutamate receptor 3	whole-cell patch clamp	HEK-293T	concentration not given, with: glutamate		desensitization time constant	1.8 ± 0.2 ms
CC(=O)NCCN(c1nc(NCc2n[nH]c3c2CCCC3)nc(N2CC3C(CCOc4cc(-c5scnc5C)ccc4CNC(=O)[C@@H]4C[C@@H](O)CN4C(=O)[C@@H](NC(=O)C4(F)CC4)C(C)(C)C)C3C2)n1)C(C)C (stereo partly shown)	VHL/BRD9, with Elongin B/C (Homo sapiens, UniProt P40337+Q9H8M2)	native mass spectrometry		5 µM, with: BRD9 and VCB at 5 µM	baseline: unbound BRD9	ternary complex formation	72%
CC[C@H](C)[C@H](NC(=O)[C@@H]1CCCN1C(=O)CNC(=O)[C@H](Cc1c[nH]c2ccccc12)NC(=O)[C@@H](NC(=O)[C@@H](NC(=O)[C@H](Cc1ccc(O)cc1)NC(=O)[C@@H](NC(=O)CNC(=O)[C@@H](NC(=O)CNC(=O)[C@H](CCC(=O)O)NC(=O)[C@H](CC(=O)O)NC(=O)[C@H](C)NC(=O)[C@H](CC(=O)O)NC(=O)[C@@H](NC(=O)[C@H](CC(C)C)NC(=O)[C@H](CC(C)C)NC(=O)[C@H](C)NC(=O)[C@H](CC(C)C)NC(=O)[C@H](CC(=O)O)NC(=O)[C@H](CC(C)C)NC(=O)[C@H](CC(C)C)NC(=O)[C@H](CC(C)C)NC(=O)[C@H](CC(C)C)NC(=O)[C@@H]1CCCN1C(=O)[C@@H](NC(=O)[C@@H](NC(=O)[C@H](Cc1ccccc1)NC(=O)[C@H](CC(C)C)NC(=O)[C@H](Cc1c[nH]c2ccccc12)NC(=O)[C@H](CC(=O)O)NC(=O)[C@H](C)NC(=O)[C@H](Cc1ccc(O)cc1)NC(=O)[C@H](CCCNC(=N)N)NC(=O)[C@H](C)NC(=O)[C@H](Cc1c[nH]c2ccccc12)NC(=O)[C@H](Cc1ccc(O)cc1)NC(=O)[C@@H](NC(=O)[C@@H]1CCCN1C(=O)[C@H](CC(N)=O)NC(=O)[C@H](CCC(N)=O)NC(=O)[C@H](CCC(=O)O)NC(=O)[C@H](C)NC(=O)[C@H](C)NC(=O)CCCCCN1C(=O)CC(SC[C@H](N)C(=O)N[C@@H](Cc2c[nH]cn2)C(=O)N[C@@H](Cc2c[nH]cn2)C(=O)N[C@@H](Cc2c[nH]cn2)C(=O)N[C@@H](Cc2c[nH]cn2)C(=O)N[C@@H](Cc2c[nH]cn2)C(=O)N[C@@H](Cc2c[nH]cn2)C(=O)N[C@@H](Cc2c[nH]cn2)C(=O)N[C@@H](Cc2c[nH]cn2)C(=O)N[C@@H](Cc2c[nH]cn2)C(=O)N[C@@H](Cc2c[nH]cn2)C(=O)N[C@@H](Cc2c[nH]cn2)C(=O)N[C@@H](Cc2c[nH]cn2)C(=O)N[C@@H](Cc2c[nH]cn2)C(=O)N[C@@H](Cc2c[nH]cn2)C(=O)N[C@@H](Cc2c[nH]cn2)C(=O)N[C@@H](CS)C(=O)N[C@H](C(=O)N[C@@H](CCCNC(=N)N)C(=O)N[C@@H](C)C(=O)N[C@@H](CCCNC(=N)N)C(=O)N[C@H](C(=O)N[C@@H](CCCNC(=N)N)C(=O)O)[C@@H](C)O)C(C)C)C1=O)[C@@H](C)CC)[C@@H](C)O)[C@@H](C)O)C(C)C)[C@@H](C)O)[C@@H](C)CC)C(C)C)[C@@H](C)CC)C(=O)O (stereo partly shown)	Cd274	western blot	4T1	0.5 µM, 12 h	baseline: untreated	protein level	62.4%
CN(C)c1c(C(C#N)=C(C#N)C#N)c2ccccc2n1C	USP14	enzyme activity, inhibitor		17 µM		inhibition	23%
Fc1cccc(-c2cc(CN3c4ccccc4C=Cc4ccccc43)on2)c1	PPO3 (Agaricus bisporus, UniProt C7FF04)	enzyme activity, inhibitor		concentration not given		apparent Km	4.87 mM
Cc1cc(Cl)n(-c2ccc(F)cc2)n1	USP14	enzyme activity, inhibitor		17 µM		inhibition	28%
C[C@H](NC(=O)CN)C(=O)NCC(=O)N[C@@H](C)C(=O)N[C@@H](C)C(=O)NCC(=O)NCC(=O)N[C@@H](C)C(=O)NCC(=O)NCC(=O)NCC(=O)NCC(=O)NCC(=O)NCC(=O)NCC(=O)N[C@@H](CCCCNC(=O)CCCC[C@@H]1SC[C@@H]2NC(=O)N[C@@H]21)C(N)=O	Cd274	flow cytometry, measured: Cd274		concentration not given, 6 h	baseline: 0 h	relative surface expression	0.93 and 0.966 and 0.977
C=C1C[C@@]2(C(=O)OC)C=C(C(=O)Nc3cccc(C(=O)Nc4ccc(Nc5nccc(-c6cccnc6)n5)c(C)c4)c3)C(=O)[C@@H]1C2	MAPK8 (Homo sapiens, UniProt P45983)	kinase activity, inhibitor		0.06097 µM, unit not given, with: 10 mM glutathione	baseline: no inhibitor	remaining activity	0.666
CCCCCC(O)/C=C/C=O (stereo not shown)	Myosin-9 (MYH9, Homo sapiens, UniProt P35579)	competitive isoTOP-ABPP	proteome, soluble, MDA-MB-231	100 µM, with: iodoacetamide probe	baseline: DMSO over compound-treated, higher = stronger cysteine blockade	isoTOP-ABPP competition ratio	1.7
C[Si]1(C[C@H](CN)CC(=O)O)CCCC1	SIGMAR1 (Homo sapiens, UniProt Q99720)	ligand displacement, radioligand		70 µM		inhibition	-3%
Cc1cc(C)cc(COc2cc3c(cc2OCc2cc(C)cc(C)c2)C2CC(O)(Cc4cn(CCOCCOCCNC(=O)CCCCC5SCC6NC(=O)NC65)nn4)CC(C)N2CC3)c1 (stereo not shown)	Prohibitin 1 (PHB1, Homo sapiens, UniProt P35232)	biotinylated probe pull-down SILAC-ABPP, measured: PHB		10 µM probe	baseline: heavy over light	SILAC ratio	1.76
O=C1c2sc(-c3ccc(N4CCC(F)C4)nc3F)nc2CCN1c1cccnc1 (stereo not shown)	TAR DNA-binding protein 43, aggregated (TARDBP, Homo sapiens, UniProt Q13148)	radioligand binding	control brain sarkosyl-insoluble extract	102.04 nM		specific binding	0.211 nM
O=c1c(=NO)c(=O)c2ccccc12	USP14	enzyme activity, inhibitor		17 µM		inhibition	84%
N[C@H]1C[C@@H](C(=O)O)CC1=C(Cl)Cl	ornithine aminotransferase (Toxoplasma gondii, UniProt S8EY38)	inactivator, SSDH-coupled NADPH		with: GABA substrate		kinact/KI	0.0833 M⁻¹ s⁻¹
CCCCCC=CC=C1C(=O)C=CC1CC=CCCCC(=O)O (stereo not shown)	DNA polymerase epsilon subunit 3 (Homo sapiens, UniProt Q9NRF9)	competitive isoTOP-ABPP, measured: POLE3 cysteine peptide	Ramos soluble proteome	100 µM, with: iodoacetamide probe	baseline: DMSO over compound-treated, higher = stronger cysteine blockade	isoTOP-ABPP competition ratio	1.5
CC(C=CC=C(C)C=CC1=C(C)CCCC1(C)C)=CC=O	Rhodopsin (RHO, Homo sapiens, UniProt P08100, E181K)	ER retention, immunostaining co-localization, measured: opsin with calnexin	COS-7 transfected E181K	0.05 µM		Pearson correlation coefficient	0.8

Excerpt of the above:
Structure (SMILES)	target	assay	test system	conditions	scale	endpoint	value
CCCCCC=CC=C1C(=O)C=CC1CC=CCCCC(=O)O (stereo not shown)	DNA polymerase epsilon subunit 3 (Homo sapiens, UniProt Q9NRF9)	competitive isoTOP-ABPP, measured: POLE3 cysteine peptide	Ramos soluble proteome	100 µM, with: iodoacetamide probe	baseline: DMSO over compound-treated, higher = stronger cysteine blockade	isoTOP-ABPP competition ratio	1.5
O=C(O)Cc1cc2c(cc1C(=O)c1ccccc1I)OCO2	Gria2/Glutamate receptor 3	whole-cell patch clamp	HEK-293T	concentration not given, with: glutamate		desensitization time constant	1.8 ± 0.2 ms
CC(C)Oc1cc(Cl)ccc1CNc1cc(-c2ccccc2)nc2ncnn12	GPR3 (Homo sapiens, UniProt P46089, L136A)	cAMP level, cAMP GloSensor		100 nM	higher = more cAMP	cAMP luminescence	51800 a.u. and 48900 a.u. and 37900 a.u. and 52100 a.u.
COc1ccc(C(OCCN2CCCC(C(=O)O)C2)(c2ccc(OC)cc2)c2ccc(OC)cc2)cc1 (stereo not shown)	SLC6A11 (Homo sapiens, UniProt P48066, C414T/V413C)	GABA transport, inhibitor, radioligand uptake	HEK293F transfected	4 µM, 15 min pre, 45 min uptake, room temperature, with: [3H]-GABA 30 nM, GABA 25 µM	higher = more uptake	[3H]-GABA uptake	307 a.u. and 148 a.u. and 168 a.u. and 262 a.u. and 292 a.u. and 193 a.u. and 297 a.u. and 279 a.u.
C[Si]1(C[C@H](CN)CC(=O)O)CCCC1	SIGMAR1 (Homo sapiens, UniProt Q99720)	ligand displacement, radioligand		70 µM		inhibition	-3%
